Published values pooled from the literature.
Each numbered part is a random draw from the data of one study; scales do not carry over between parts.

Study 1
Target: Histone acetyltransferase KAT6A, both winged helices, GST fusion (KAT6A, Homo sapiens, UniProt Q92794, residues 1-181)
Method: protein binding microarray
Form: double-stranded DNA, one strand shown
Medium: in vitro
Tested at: not given
Notes: 8-mer, flanks averaged, mean of 2 arrays, mostly near background
Relative to: not given
Direction: higher = stronger binding
Quantity: E-score
Residues (chain): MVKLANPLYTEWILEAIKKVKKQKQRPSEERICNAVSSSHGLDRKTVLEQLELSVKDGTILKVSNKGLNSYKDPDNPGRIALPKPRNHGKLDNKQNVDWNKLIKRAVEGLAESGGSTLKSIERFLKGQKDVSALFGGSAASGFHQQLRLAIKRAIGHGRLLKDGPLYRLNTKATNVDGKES
GCTACAAA: -0.0981
AGTACCCA: -0.101
AAATTGGC: -0.185
TGACCGCA: 0.14
CTCCTCCC: -0.188
CACTGGCC: -0.0445
GTTGACGA: -0.103
CGCCGTCA: 0.28
ATGCCTGC: -0.0877
TACGTCCA: -0.103
GTTTACAA: -0.0213
AATAGGAT: -0.0192
ACGTATGC: 0.082
GAGATCAA: -0.115
CCGCGTTC: 0.319
GCAAAGGC: -0.0811
CGAGAACC: 0.0673
GTCTTGTA: -0.0461
ATACGTTG: -0.0174

Study 2
Target: Centromere-binding protein 1, full length, His-tagged (CBF1, Saccharomyces cerevisiae, UniProt P17106, residues 1-351)
Chain of UniProt P17106 (whole entry, looked up): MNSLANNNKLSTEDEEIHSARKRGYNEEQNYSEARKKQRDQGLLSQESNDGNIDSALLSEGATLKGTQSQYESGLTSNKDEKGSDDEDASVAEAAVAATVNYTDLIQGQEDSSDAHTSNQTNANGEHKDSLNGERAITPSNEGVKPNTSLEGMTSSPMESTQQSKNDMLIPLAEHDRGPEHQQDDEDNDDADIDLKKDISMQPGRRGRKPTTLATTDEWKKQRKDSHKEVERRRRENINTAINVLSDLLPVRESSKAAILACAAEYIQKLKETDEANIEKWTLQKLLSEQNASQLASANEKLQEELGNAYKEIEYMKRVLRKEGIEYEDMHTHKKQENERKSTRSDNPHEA
Method: competition protein-binding microarray
Form: double-stranded DNA, one strand shown
Medium: in vitro
Tested at: 2 µM
Notes: whole 60-bp probe, lowest competitor level
With: Pho4 competitor, 0.05 µM
Direction: higher = stronger binding
Quantity: fluorescence intensity
All sequences stand within: … GTCTTGATTCGCTTGACGCTGCTG
CATACCCAACCTTTTCACGTGGCTTAAGATATTTGT: 932 a.u.
AAAGCGGTAATTTTTCACGTGACGTCAAATATCTAT: 7590 a.u.
TCATCACCAGAAAGTGACATGACAAGAGATTCTGGT: 64.1 a.u.
AAATTACTAAGTTGATCAGTGGGTGACGCCGTATGA: 77 a.u.
TGTAACAAGGAACAACGCGTGCTAACAAGCGGTAAT: 102 a.u.
CCCAGCAAGCGTTCATCCGTGACGGGTTCAGCAAGG: 52.9 a.u.
CTTTCCCGATCTTGTCACAGAACTTTAGCACATTTG: 86.6 a.u.
AAGTAGGAGTATAAGAGCGTGGGTAAACACAAAATG: 68.7 a.u.
TTGCACTAGACGAGTCACGTGGCCGTTAATCCCCCG: 8630 a.u.
TTCCACCGAATTTCCCACCTGATAATATCTGATAAC: 107 a.u.
GCTTGGCATCCGTCCCACGTTATGTGGAGTGTTGCC: 70.8 a.u.
CAACAAGGAGGATGGCATGTGGATACTACTTTCTTG: 90.1 a.u.
CGTCCTAGTGATTTTCACGTGGTCTCCATGAGGAAG: 1580 a.u.
CGTCCTAGTGATTTTCACGTGTATTCCATGAGGAAG: 993 a.u.
TAGATCCCTGTCCGTCACCTGAGTGTCCGTTTCAGG: 108 a.u.
CCAGTCCCTCAGCACCACGTGGGACTTAGGGGCAAA: 657 a.u.
TGCGCAACAACTTGTCGCGTGGGTGTATGTCTAGAA: 88.4 a.u.
TCTGTATTCCCCAGAGTTGTGACGAATAACTGGTGA: 80.6 a.u.
CAGTCCGCCTCCCGTCACGTGATGGAGTAAGAAATT: 12200 a.u.
CGGGGTTAAGTTTGGTTGGTGGGTGGCTTGCAGCAG: 95.2 a.u.
ATCAAGACGGGATTGCACACGCATTAACAACAACTC: 72.5 a.u.
GCTTGTATGCTATACCATGTGATATGTAATAGTACA: 1240 a.u.
TTGCCTTTTTCACTTCACGTGCTTTTGGTACATACT: 1440 a.u.
GTCTTGTCTCATTGTCTTGTGGGTGTCCCCACTTCA: 67.4 a.u.
GTTGGACCTTGGTTCCACGGGGTTCATTTCAGGCTG: 77.5 a.u.

Study 3
Target: Interferon regulatory factor 7, full length, phosphomimetic (IRF7, Homo sapiens, UniProt Q92985, residues 1-503, S471D/S472D/S475D/S476D/S477D/S483D/S484D/S487D)
Method: protein-binding microarray
Form: double-stranded DNA, one strand shown
Medium: in vitro
Tested at: 2200 nM top
Notes: 60-bp whole probe
With: salmon DNA 0.4 mg/ml
Relative to: random background probes
Direction: higher = stronger binding
Quantity: fitted relative affinity
All sequences stand within: GCCTAGCAC … GTCTTGATTCGCTTGACGCTGCTG
Construct (chain): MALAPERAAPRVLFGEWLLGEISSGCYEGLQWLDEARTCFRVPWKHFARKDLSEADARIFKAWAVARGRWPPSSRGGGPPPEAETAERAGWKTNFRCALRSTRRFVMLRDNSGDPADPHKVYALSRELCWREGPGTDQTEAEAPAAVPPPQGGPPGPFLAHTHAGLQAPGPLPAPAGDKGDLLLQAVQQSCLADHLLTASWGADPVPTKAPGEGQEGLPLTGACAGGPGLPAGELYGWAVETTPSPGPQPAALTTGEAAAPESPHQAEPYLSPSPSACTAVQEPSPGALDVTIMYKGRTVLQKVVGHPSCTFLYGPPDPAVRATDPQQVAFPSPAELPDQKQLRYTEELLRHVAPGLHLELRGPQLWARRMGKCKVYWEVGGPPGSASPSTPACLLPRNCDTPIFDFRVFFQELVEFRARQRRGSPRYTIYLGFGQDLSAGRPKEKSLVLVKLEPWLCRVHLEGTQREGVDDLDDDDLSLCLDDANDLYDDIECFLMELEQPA
GACGATATCAGTTTCGAGCCGTGCTAG: 2.83 z-score
GGACCGCGACCTGCCAAGTCGTGCTAG: -0.78 z-score
TGTGAAACCTTCAGGCACGTGTGCTAG: -0.361 z-score
ACAGCTCACGCTTTGGAAAGGTGCTAG: 0.45 z-score
TTAAGTATCGACTTTCGGTTAGTGCTA: 6.57 z-score
GTGTGTCTGATTATTTACATGTGCTAG: 0.976 z-score
TTAGGTCTCGGAATCGGTTAGTGCTAG: 0.634 z-score
GACGATTTCAGCTTCGAGACGTGCTAG: 0.793 z-score
GACGATTTCGGCTTTCGAGACGTGCTA: 3.88 z-score
TCATGTTTTTTTCTACTTCTGTGCTAG: 2.69 z-score
GACGGTATCCTTATCCTCACGTGCTAG: 0.95 z-score
GACGATTTCAGACAGGAGACGTGCTAG: 0.0982 z-score
GACGATCTCAGTAACGAGACGTGCTAG: 0.0217 z-score
GACGGTCTCCTAATGCTGACGTGCTAG: 0.459 z-score
TTAGATCTCGGTCTCGGTTAGTGCTAG: 0.79 z-score
AGACCTTGCTTTATGTGTAGGTGCTAG: 0.548 z-score

Study 4
Target: Sal-like protein 4, full length isoform A (SALL4, Homo sapiens, UniProt Q9UJQ4, residues 1-1053)
Chain of UniProt Q9UJQ4 (whole entry, looked up): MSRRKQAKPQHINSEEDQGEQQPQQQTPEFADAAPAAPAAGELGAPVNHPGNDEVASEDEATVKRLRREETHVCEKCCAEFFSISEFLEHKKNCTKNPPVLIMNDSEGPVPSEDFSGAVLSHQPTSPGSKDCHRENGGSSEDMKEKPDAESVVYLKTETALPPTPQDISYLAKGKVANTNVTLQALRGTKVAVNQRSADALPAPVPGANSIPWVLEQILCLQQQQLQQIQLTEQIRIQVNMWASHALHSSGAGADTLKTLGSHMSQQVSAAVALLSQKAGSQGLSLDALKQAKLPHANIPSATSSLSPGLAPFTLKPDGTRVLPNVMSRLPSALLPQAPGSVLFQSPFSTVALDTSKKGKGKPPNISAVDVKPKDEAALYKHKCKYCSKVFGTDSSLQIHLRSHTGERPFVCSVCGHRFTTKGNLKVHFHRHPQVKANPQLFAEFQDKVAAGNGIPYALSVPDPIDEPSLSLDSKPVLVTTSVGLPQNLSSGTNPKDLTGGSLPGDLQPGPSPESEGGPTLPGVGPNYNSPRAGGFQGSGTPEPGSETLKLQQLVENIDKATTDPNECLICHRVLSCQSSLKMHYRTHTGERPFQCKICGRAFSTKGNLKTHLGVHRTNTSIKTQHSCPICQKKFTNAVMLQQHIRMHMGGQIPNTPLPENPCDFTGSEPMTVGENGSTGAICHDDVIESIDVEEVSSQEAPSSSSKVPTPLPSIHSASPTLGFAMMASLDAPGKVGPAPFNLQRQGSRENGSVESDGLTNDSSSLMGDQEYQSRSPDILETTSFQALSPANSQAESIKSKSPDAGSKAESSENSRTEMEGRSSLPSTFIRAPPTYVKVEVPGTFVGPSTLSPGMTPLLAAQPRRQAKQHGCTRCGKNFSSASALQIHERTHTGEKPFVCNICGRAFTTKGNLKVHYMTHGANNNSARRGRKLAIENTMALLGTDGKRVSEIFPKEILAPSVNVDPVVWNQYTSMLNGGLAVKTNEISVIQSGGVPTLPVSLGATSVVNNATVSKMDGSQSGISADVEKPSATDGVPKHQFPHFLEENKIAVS
Method: universal PBM
Form: double-stranded DNA, one strand shown
Medium: in vitro
Tested at: 600 nM
Notes: 8-mer, flanks averaged, mean of replicates
Direction: higher = stronger binding
Quantity: E-score
CACTAGAA: 0.0916
AGCAACAA: 0.17
ATCAGGGC: -0.218
CTGTCATA: 0.237
GATTGCGA: -0.0289
ATTAGTAA: 0.292
TGCTAGAA: -0.00907
TAGCCAAA: 0.169
TCAACCCA: -0.117
ACTCGGCT: -0.261
GCGCCCCC: -0.334
GCGGGACA: -0.213
GTGGGGCA: -0.255
AGGAAAGC: -0.0365
CTCCTTCA: 0.0649
ATAAGCAA: 0.326
ATGCTTCG: 0.00086
AGGGATCG: -0.174
CAGCCGTA: -0.196
CCCTGATA: 0.049
TAGGGCCA: -0.2
GTTTGTGA: 0.0159
ACAAGGAG: 0.116
CCTCCTCC: -0.286
GTCGCGGA: -0.344

Study 5
Target: Prothrombin, mature alpha-thrombin (F2, Homo sapiens, UniProt P00734)
Method: aptamer microarray, sandwich
Form: DNA with 2'F-ANA
Medium: in vitro
Tested at: 200 nM
Notes: whole 15-mer aptamer, many near background
With: Cy3 exosite-II aptamer, 400 nM
Direction: higher = stronger binding
Quantity: mean fluorescence intensity
Oligonucleotide: GGTTGGTGTGGTTGG
2'F-ANA at 1 2 3 8 11 13: 215 a.u.
2'F-ANA at 1 5 6 7 9 11 13 14: 50.5 a.u.
2'F-ANA at 1 2 7 10 13 14: 42.7 a.u.
2'F-ANA at 1 4 5 6 7 8 9 11 12: 87.6 a.u.
2'F-ANA at 3 6 11 12 13 15: 850 a.u.
2'F-ANA at 1 2 3 4 5 6 7 9 10: 47.1 a.u.
2'F-ANA at 2 7 8 13: 449 a.u.
2'F-ANA at 1 4 7 9 12: 370 a.u.
2'F-ANA at 2 4 5 6 8 9 12 14: 51.1 a.u.
2'F-ANA at 1 4 6 7 8 10 12: 62.3 a.u.
2'F-ANA at 1 2 3 7 10 15: 72.6 a.u.
2'F-ANA at 6 9 12 14: 211 a.u.
2'F-ANA at 4 8 11 14 15: 110 a.u.
2'F-ANA at 1 2 5 6 8 11 13 14: 59.4 a.u.
2'F-ANA at 2 6 8 10 13 14 15: 75.2 a.u.
2'F-ANA at 2 4 5 7 8 9 12 13 14 15: 49.1 a.u.
2'F-ANA at 2 5 6 7 8 9 11 15: 60.7 a.u.
2'F-ANA at 1 2 7 11 12 14 15: 96.2 a.u.
2'F-ANA at 1 12 13 14: 69.7 a.u.
2'F-ANA at 4 5 6 7 9 10 12 13: 47.6 a.u.
2'F-ANA at 4 5 6 7 11 14 15: 45.9 a.u.
2'F-ANA at 1 3 4 7 8 9 12 13 15: 275 a.u.
2'F-ANA at 1 3 6 7 10 13: 74.4 a.u.
2'F-ANA at 2 3 4 5 10 11 13 15: 50.2 a.u.
2'F-ANA at 1 3 6 7 9 11 12 14: 110 a.u.

Study 6
Target: RNA binding protein fox-1 homolog 2, RRM domain, GST-SBP tag (RBFOX2, Homo sapiens, UniProt O43251-10, residues 100-194)
Method: RNA Bind-n-Seq
Form: RNA
Medium: in vitro
Tested at: 365 nM
Notes: natural RNA segment, single round, ends assumed
Relative to: no-protein control
Direction: higher = stronger binding
Quantity: RBNS enrichment (R)
All sequences stand within: GGGAGUUCUACAGUCCGACGAUC … UGGAAUUCUCGGGUGCCAA
Residues (chain): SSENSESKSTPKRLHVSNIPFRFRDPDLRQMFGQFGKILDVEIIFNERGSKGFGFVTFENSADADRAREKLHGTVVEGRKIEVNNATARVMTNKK
AUGUGAACGUUGAGUACACAUGAGUGCGUGUAUGCCCCCAGGCUGGGUCAGCUCUUCUGUGGAUUGCAUGGCGUGUGAUUAAAAGCCCAUGUGUUCCCACACAUCCACAU: 0.515
UGGAAGUGUUCAAGAAAUAAAAAUCAACUUGUGUACUGAUAAAAUACUCUAGCCUGGGCCAGAGAAGAUAAUGUUCUUUAAUGUUGUCCAGGAAACCCUGGCUUGCUUGC: 1.98
UUUAGCAUUAUAAGAGAGAUUGGACAAACCAGUCCAAAGUGGUCCGAGUUCUUAAAUCCAGGUAGGGAACUCACUCUUCUUUCUUCUCUGGACCUAAUUGGGCAUUGGGC: 1.14
GUCAGUAUCUCCAGCUCUGAUUACCUUUGAAGUGUUCAGAAGAGACAUUGUCUUCUACUGUUCUGCCAGGUUCUUCUUGAGCUUUGGGCCUCAGUUGCCCUGGCAGAAAA: 0.289
UCUCUCCUUUAAGCUCAAGUUUUGAACUCUCUGCGGUUUUCCACCCCUGCCUUCUCAGCCACAUGCUUUUGGCCUUAAACGCUCAGUCUUGUGGAGUUCAACUCUGUCAA: 0.648
AUGCCUUGGCACUGACACCGUCCUGGCGCUGCCCAAGGCUAUACCUGUGUAGCCCUUUGGAUUCAGCCUGUGGAUGUCCACUCAUCCCUGCAGGCUCCUACUGCCCAUGC: 0.307
AGUUUUUUGCUGUCUUUAAUUUACUAGAAUUGCCUAAUUUUUAGUUGAUUUCUCUACAGAGCUUAGCUUGUGUAGUUAUUUCUCUUUUACUGUUGCUUUGGUGUGUCUUG: 1.46
UGAGGCCAAGAUGAGAAGUGACUCUCUCAAGGUCACACAGAUAGUGAUAGAACAAGAGCCCAGGCUUCCUGUUUCCAAGUCACCUGUGUUUCCUGGGACCAAAUAAUGAG: 0.21
AUUCUCUAUUUUAAAUACUUUUAGUAUGUACUGUGUAUGACUCAUUACCAUUUUGAGGGGAUUUAUACAUAUUUUAGAUAAAAAAAGUUAAAUGCUCUUAUUUUUCCAAC: 0.855
GGAAAGGGAUUUUAUGGUUGGGGGUUAGUCCAACAAGAGGGACAGUGUUAAUGCUUCUGAAGCAUCAGGAAGGUUGAAAGCCACUGCUCUAGAGCCAAGUGAGUGCAUGU: 12.5
UGGAACCAACAAGUUGAGUGCAUCCCUGUUGGGUGUUUUGUGUUGAGACUGGCUGAAAUGAGGAGACUUUGACCAUGUGACGUGUCAACAGACUCAAGGAGACAACCACC: 1.64
ACUUGUUGUGGCUCUUAUUUCUGAAUUCAAAGCUUGUGAAAAAAUAAAGAAAAUGAACUGCCCACUGCCUGACUAGGGCACUUUCAUUUCAGUGGUGGUGUCUGGAUUGG: 12.1

Excerpt of the above (study 1):
ATGCCTGC: -0.0877
AAATTGGC: -0.185
ACGTATGC: 0.082
AGTACCCA: -0.101
AATAGGAT: -0.0192
CACTGGCC: -0.0445
ATACGTTG: -0.0174
CGAGAACC: 0.0673
GTCTTGTA: -0.0461
GTTTACAA: -0.0213
